{"data": "Published values pooled from the literature", "note": "Lines come from different studies, so protocols differ.", "UniProt P41240, sequence (whole entry, looked up)": "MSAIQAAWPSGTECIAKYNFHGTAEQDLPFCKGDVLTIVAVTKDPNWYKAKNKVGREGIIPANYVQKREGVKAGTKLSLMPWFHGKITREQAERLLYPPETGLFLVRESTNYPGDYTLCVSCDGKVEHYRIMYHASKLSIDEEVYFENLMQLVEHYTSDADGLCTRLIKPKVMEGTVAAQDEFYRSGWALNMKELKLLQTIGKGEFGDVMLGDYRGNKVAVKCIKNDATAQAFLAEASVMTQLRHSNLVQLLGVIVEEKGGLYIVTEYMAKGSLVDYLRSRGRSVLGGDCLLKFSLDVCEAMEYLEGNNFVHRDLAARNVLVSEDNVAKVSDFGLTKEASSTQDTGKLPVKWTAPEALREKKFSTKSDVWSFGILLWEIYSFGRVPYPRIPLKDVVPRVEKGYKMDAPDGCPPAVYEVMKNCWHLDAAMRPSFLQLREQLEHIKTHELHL", "UniProt P41743, sequence (whole entry, looked up)": "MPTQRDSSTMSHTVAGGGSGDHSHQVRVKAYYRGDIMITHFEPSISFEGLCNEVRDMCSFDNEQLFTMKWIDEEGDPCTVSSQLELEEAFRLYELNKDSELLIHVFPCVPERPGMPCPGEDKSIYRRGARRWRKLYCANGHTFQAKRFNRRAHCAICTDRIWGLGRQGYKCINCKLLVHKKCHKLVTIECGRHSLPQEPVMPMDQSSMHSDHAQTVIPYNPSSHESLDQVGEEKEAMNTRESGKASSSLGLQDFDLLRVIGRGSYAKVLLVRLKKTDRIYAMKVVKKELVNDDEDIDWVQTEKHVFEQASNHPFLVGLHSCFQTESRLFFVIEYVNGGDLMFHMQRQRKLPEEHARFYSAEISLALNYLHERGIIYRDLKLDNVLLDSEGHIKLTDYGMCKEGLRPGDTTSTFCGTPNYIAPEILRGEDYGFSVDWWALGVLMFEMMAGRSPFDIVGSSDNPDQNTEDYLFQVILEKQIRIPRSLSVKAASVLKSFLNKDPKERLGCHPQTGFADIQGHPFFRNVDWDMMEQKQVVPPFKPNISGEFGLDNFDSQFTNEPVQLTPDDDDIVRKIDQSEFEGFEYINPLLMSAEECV", "UniProt Q15835, sequence (whole entry, looked up)": "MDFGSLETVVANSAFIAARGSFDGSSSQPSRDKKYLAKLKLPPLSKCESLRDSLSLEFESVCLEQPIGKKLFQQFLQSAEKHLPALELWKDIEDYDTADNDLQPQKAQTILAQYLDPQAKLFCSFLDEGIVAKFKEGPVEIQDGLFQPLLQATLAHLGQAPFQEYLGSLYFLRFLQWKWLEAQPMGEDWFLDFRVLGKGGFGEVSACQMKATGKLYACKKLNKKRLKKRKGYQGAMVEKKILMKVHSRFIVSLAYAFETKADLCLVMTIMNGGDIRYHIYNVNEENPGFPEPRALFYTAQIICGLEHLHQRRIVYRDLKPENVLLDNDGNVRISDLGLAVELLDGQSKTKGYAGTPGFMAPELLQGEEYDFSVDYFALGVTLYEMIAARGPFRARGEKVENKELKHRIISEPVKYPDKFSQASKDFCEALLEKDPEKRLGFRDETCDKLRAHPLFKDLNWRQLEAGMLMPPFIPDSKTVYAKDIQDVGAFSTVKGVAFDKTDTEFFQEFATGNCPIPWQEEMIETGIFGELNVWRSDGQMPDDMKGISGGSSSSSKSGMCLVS", "UniProt P07949, sequence (whole entry, looked up)": "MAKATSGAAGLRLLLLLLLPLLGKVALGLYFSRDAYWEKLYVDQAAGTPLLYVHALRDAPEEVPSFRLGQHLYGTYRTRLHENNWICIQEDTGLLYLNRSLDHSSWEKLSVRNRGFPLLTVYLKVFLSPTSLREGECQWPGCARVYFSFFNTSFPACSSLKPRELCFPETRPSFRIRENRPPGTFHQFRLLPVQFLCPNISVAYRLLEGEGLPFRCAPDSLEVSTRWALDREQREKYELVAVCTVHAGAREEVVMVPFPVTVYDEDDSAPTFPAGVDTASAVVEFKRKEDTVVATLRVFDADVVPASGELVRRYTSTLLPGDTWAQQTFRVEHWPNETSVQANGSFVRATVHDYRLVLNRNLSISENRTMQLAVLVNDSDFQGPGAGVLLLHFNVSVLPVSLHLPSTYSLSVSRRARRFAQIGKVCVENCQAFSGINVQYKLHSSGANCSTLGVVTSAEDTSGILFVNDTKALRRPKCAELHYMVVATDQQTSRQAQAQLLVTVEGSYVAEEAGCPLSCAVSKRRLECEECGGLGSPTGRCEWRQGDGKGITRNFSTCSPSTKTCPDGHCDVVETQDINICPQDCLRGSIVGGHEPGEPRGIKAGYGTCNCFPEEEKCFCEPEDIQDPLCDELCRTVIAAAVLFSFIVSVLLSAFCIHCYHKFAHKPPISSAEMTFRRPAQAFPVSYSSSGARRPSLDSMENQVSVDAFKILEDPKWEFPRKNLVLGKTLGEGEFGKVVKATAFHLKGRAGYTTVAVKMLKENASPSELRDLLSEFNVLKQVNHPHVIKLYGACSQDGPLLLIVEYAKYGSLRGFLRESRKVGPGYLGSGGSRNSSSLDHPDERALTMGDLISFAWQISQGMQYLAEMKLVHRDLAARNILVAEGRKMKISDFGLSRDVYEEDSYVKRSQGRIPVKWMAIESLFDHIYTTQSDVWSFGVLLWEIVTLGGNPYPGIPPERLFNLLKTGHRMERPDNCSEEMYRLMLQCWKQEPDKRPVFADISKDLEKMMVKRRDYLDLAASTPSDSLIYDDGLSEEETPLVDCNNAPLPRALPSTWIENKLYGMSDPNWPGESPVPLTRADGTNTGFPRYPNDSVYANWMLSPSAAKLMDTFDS"}
{"SMILES": "COc1cc(-c2cncc3c2CN(C)Cc2cc(N4CCNCC4)ccc2-3)cc(OC)c1OC", "target": "GRK1 (Homo sapiens, UniProt Q15835)", "assay": "enzyme activity, inhibitor", "setting": "1 µM", "measurement": "remaining activity", "result": "94%"}
{"SMILES": "C=CC(=O)N1CCC(COCC(=O)N2CCN(c3nc(-c4cnc(N)nc4C(F)F)nc(N4CCOC[C@@H]4C)n3)CC2)CC1", "target": "PRKCI (Homo sapiens, UniProt P41743)", "assay": "binding, competition with immobilised ligand", "setting": "1 µM", "measurement": "remaining binding", "result": "100%"}
{"SMILES": "Cc1cc([C@@H](C)Nc2ccccc2C(=O)O)c2nc(N3CCC(F)(F)CC3)c(C#N)c(=O)n2c1", "target": "RET (Homo sapiens, UniProt P07949)", "assay": "binding, competition with immobilised ligand", "setting": "10 µM", "measurement": "remaining binding", "result": "100%"}
{"SMILES": "CNc1ncc2c(/C=C/C(=O)N3CCC(OC)CC3)nn(Cc3cccc(C(F)(F)F)c3)c2n1", "target": "CSK (Homo sapiens, UniProt P41240)", "assay": "enzyme activity, inhibitor, radiometric", "setting": "1 µM", "measurement": "remaining activity", "result": "98%"}
{"note": "Excerpt of the above:"}
{"SMILES": "C=CC(=O)N1CCC(COCC(=O)N2CCN(c3nc(-c4cnc(N)nc4C(F)F)nc(N4CCOC[C@@H]4C)n3)CC2)CC1", "target": "PRKCI (Homo sapiens, UniProt P41743)", "assay": "binding, competition with immobilised ligand", "setting": "1 µM", "measurement": "remaining binding", "result": "100%"}
